Published values pooled from the literature.
Every numbered part comes from another study and shows a few of its results, in no order.

Series 1
Target: Ras GTPase-activating protein-binding protein 1, full length (G3BP1, Homo sapiens, UniProt Q13283)
Chain of UniProt Q13283 (whole entry, looked up): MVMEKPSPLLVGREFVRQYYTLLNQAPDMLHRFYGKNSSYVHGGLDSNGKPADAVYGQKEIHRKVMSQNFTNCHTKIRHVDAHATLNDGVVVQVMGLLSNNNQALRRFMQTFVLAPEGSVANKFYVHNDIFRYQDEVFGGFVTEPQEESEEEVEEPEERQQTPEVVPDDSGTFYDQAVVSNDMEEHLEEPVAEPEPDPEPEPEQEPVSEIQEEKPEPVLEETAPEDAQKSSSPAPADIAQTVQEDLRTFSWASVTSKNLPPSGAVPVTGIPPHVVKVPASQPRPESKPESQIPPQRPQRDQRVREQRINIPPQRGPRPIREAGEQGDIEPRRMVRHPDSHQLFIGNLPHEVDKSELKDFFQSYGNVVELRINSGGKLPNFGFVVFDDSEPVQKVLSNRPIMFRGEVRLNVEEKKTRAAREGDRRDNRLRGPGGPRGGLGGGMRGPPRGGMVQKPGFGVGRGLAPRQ
Method: RNA Bind-n-Seq
Molecule type: RNA
Sample: in vitro
Concentration: 200 nM
Setting: whole 134-nt RNA, ends assumed
Added: 150 mM LiCl
Reference: input library
Direction: higher = stronger binding
Quantity: log2 enrichment
All molecules: 7-deaza-guanosine replaces G
Constant ends, left off below: GGGAGUUCUACAGUCCGACGAUC … UGGAAUUCUCGGGUGUCAAGG
CACAGACAACACGCACCCAUACAGACACAGAGGGAAGGGGUUGGGAUGGGGACAGGGUGCACAGCAGGGCGGGGUAGGACCCCAGCCCCU: 0.069
CCUGUGCUACACAUCGUAUGUACCGAAUCGGGGAAAAAAAGGGGUUUGGGGAAAAAGGGGAAAGUAUUAUGUUACGCCGUUCGGAUCUGC: -0.689
GUCCUGUGCUACACAUCGUAUGUACCGAAUCGGUUUUUUUGGUUUUUUUGGAAAAAGGAAAGUAUUAUGUUACGCCGUUCGGAUCUGCAC: -1.39
UUGUGAUAGCCAAGUGGGACUACACCGCCCAGCAGGACCAGGAGCUGGACAUCAAGAAGAACGAGCGGCUGUGGUUGCUGGACGACUCCA: -0.831
CCUGUGCUACACAUCGUAUGUACCGAAUCGGGGAAAAAAAGGGGUUUUUGGGGAAAGGGGAAAGUAUUAUGUUACGCCGUUCGGAUCUGC: 0.311
UGCGGGCCGAGAAUCGGGAGCUGGGCAAACGCGUACAGGCACUGCAGGAGGAGAGUCGCUACCUACGGGCAGUCUUAGCCAACGAGACUG: -0.381
CCUGUGCUACACAUCGUAUGUACCGAAUCGGUUUUUUUGGUUUUUUUGGGGUUUUUUUGGGAAAGUAUUAUGUUACGCCGUUCGGAUCUG: 0.119
GCUGUUCUUGCCUUAGCUGCAUCUUGGACCUCAAGACAAGUAGGAGAACGGACGUUGACCGGUACGGUAAUAGACAGUGGAGAUGGUGUC: -1.64
UAACUUUAGAGGAGGAUCUGAUGGAUAUGGCAGUGGACGUGGAUUUGGGGAUGGCUAUAAUGGCUAUGGAGGAGGACCUGGAGGUGGCAA: 0.412
GUCCUGUGCUACACAUCGUAUGUACCGAAUCGGGGCCCCCGGCCCCCGGGCCCCCGGGGAAAGUAUUAUGUUACGCCGUUCGGAUCUGCA: -1.78
UAACUUUAGAGGAGGAUCUGAUGGAUAUGCCAGUGGACGUGGAUUUGGGGAUGGCUAUAAUGGGUAUGGAGGAGGACCUGGAGGUGGCAA: -0.179

Series 2
Target: Interferon regulatory factor 5, full length, phosphomimetic (IRF5, Homo sapiens, UniProt Q13568-2, residues 1-514, K96S/S451D/S453D/S456D/S462D)
Method: protein-binding microarray
Molecule type: double-stranded DNA, one strand shown
Sample: in vitro
Concentration: 250 nM
Setting: 60-bp whole probe
Added: salmon DNA 0.4 mg/ml
Reference: random background probes
Direction: higher = stronger binding
Quantity: log fluorescence
Constant ends, left off below: GCCTAGCAC … GTCTTGATTCGCTTGACGCTGCTG
TCAACTTTTATTTTCAGACTGTGCTAG: 1.24 z-score
GACGGACTGGACACAGGGGACGTGCTA: -0.326 z-score
GACGGACTGCGTATCGGGACGTGCTAG: 0.0339 z-score
AAGGTAGCACTTCACAGCAAGTGCTAG: -0.483 z-score
TTAGGTACCCTTTTCCTTTAGTGCTAG: 0.384 z-score
TCATTTTTTTATTTATAACTGTGCTAG: 1.26 z-score
TTAGGTTTCCTACTGCTCTAGTGCTAG: 0.231 z-score
GACGATATCGTGTATCGAGACGTGCTA: 1.4 z-score
GACGATATCGGGACGGGAGACGTGCTA: 0.814 z-score
TTAGGTTCCCTTTTCTTTTAGTGCTAG: 0.76 z-score
GACGGTCTCGGACTGGGGATGTGCTAG: -0.101 z-score
TTAGGTTTCGGTTTCGGATAGTGCTAG: 11.4 z-score
GACGGTTTGCTTTCCCTGACGTGCTAG: 0.789 z-score
ACATTCCATGAGCCCACTGGGTGCTAG: -0.195 z-score
GTAGATGCCTTTCTCTTGGAGTGCTAG: 0.0767 z-score
TCAGATCTGCCGTCCCACTCAGTGCTA: -0.42 z-score
TTAGGACTGGACACTGGGTTAGTGCTA: -0.397 z-score
TTAGGTCTCCTGATCCTTTAGTGCTAG: -0.421 z-score
TTAGATATCGGGTATCGTTTAGTGCTA: 3.95 z-score
TTAGATGTCAGTTCCGATTAGTGCTAG: 0.87 z-score
TCATCTTTCCTTCTTGAACTGTGCTAG: 1.21 z-score
TGGTTTTACTTTCTATCTCTGTGCTAG: 5.57 z-score
TCACATCTGTCATGTTTGACTGTGCTA: 0.269 z-score
CACGGTCTCGGACTGGGGACGTGCTAG: -0.468 z-score
TCACAGTTTAATATCTAACTGTGCTAG: 0.566 z-score

Series 3
Target: Histone acetyltransferase KAT6A, winged helix 1, GST fusion (KAT6A, Homo sapiens, UniProt Q92794, residues 1-85)
Method: protein binding microarray
Molecule type: double-stranded DNA, one strand shown
Sample: in vitro
Concentration: not given
Setting: 8-mer, flanks averaged, mean of 2 arrays, mostly near background
Reference: not given
Direction: higher = stronger binding
Quantity: E-score
Residues (chain): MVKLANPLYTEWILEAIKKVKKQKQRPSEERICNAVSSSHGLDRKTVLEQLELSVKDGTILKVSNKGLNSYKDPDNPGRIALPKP
CTTACAAG: -0.0916
GAGTATGA: 0.0315
CACCAGGC: -0.164
CAACCCCG: 0.243
CATGACGG: 0.248
GTGGGCGA: -0.212
ACCTCTAA: -0.104
ATCGAACA: -0.0988
CAGGTACC: -0.0533
CCGTTAGC: 0.184
AAGATACA: -0.15
ACCCGCTC: 0.361
CAGTACTG: 0.0483
CACGTTAC: 0.0296
GAGATGGC: -0.172
AGCAGAGC: -0.205
GCGTAAAC: 0.295
ACCCCTGC: -0.183
AGGCTTAG: -0.0708
AATCGTGA: -0.0426
GCGACGTA: 0.14
AGCAGATA: -0.0598

Series 4
Target: RNA binding protein fox-1 homolog 2, RRM domain, GST-SBP tag (RBFOX2, Homo sapiens, UniProt O43251-10, residues 100-194)
Method: RNA Bind-n-Seq
Molecule type: RNA
Sample: in vitro
Concentration: 365 nM
Setting: natural RNA segment, single round, ends assumed
Reference: no-protein control
Direction: higher = stronger binding
Quantity: RBNS enrichment (R)
Constant ends, left off below: GGGAGUUCUACAGUCCGACGAUC … UGGAAUUCUCGGGUGCCAA
Target sequence (chain): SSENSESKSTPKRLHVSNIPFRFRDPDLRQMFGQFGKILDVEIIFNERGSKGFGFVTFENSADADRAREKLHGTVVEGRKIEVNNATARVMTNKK
AAUAUCACUACUCUUUAACGAGUGCCAAAUCUUUUCCCACUUUUGCUCUUCCCCAAGGAACUGCUCCCACCUCAGCACGUGGAGGCCUCUCACGGUCCUCCUUCCUGGGA: 0.524
AGCAACCUUGAGCAUCCCACCUCCGUGGGCUUGUGCUAGAGGGUGGGGCUGCCCACCCUACCUAGCUCCCCUUCCCUUCUCCCCAGGUGCCCACCAAUCAACAUUCAGAU: 0.547
UAGUGCCCAAGCCUGGUCGUGUUGCCAGGAGUGGUGACAAGAAAUGCAGCUUACAUCAAACGAACAUGUAGUGCAUGCCCACUGCCUGAUGGCCAGAUGGCCUGUAGGAA: 1.83
GGCCAGCAGGAGUGCUUCACAGCAGUCCUGCUUAGUACCGUUGAAGAGACUCAGUUUACCUUAGUGCCUUAGAGGAUGCUAGGUCCUCUGACUGACAUUCCUCAGUGGUC: 0.16
AUGCCAUGGUUUUGUUUUGGUUACAUUGAAAGAAAGUUAAUUUGGAAAAUUUGGGAGAAAUCUAAUCAUGCCUAUUAAGGAUGUAAGACAUUACAGCCUUAGAAGAAAGA: 1.01
GGGCUGGUAUUUAUCUGCAAGGUUGAAGUCACUGGGAUUCUUUUCCUUUCACCUAGAUAGUCCUUGGAAAGUGUGUGAGAGAGAAGUGGGCAGGAGACAGACUGGGGACU: 0.634
GUGGAGAUUCCCCUAGGAGCGCUUGGCCAGCUGGGAAGGCAGCGCCCAGCUGCACUUGUUGUUGAUACAGCAUAAGUGAAUCAUGGGCAUUUCCCUGAGAGCAGUGGGAG: 0.423
CAGGACGACUUGGAAAAAAAGGCGGCGGACAGUUGGCCAGAGGGAUGGAGACUGGUGGGGACGCCCCCGCCUCCCUGUCCCCCGUUUCACACACUGGACACCAUCACCUC: 0.192
CUUCUCUUUUCUUUCCACAAGGGACAAGAGCUUGGCUUAUUUAGGCUACAGCCCUGCUGCUGCUCCCUUCCUUCUUCUGUCCUGUUUCCAGCCUUGCAAGAAGGCUAUUC: 0.806
GAUCCUUGCCCAGCGGUGGGAGCUGGGAGACAGUGCAUGGGAGGGGCUCCCUGGCAUGCCUGCCCUAGAAUUGUUAUGUUGGGCAUCACAGUCAUGAACUUUUGUUUUUC: 3.65
GGGGAGGGGUUUGGGUCCUCACACUGAGAGCUUAUACCCAGUUGGAGCCCAAGAAGAGCUAGACUGACCCUGUAAACUUAGGGUUCCAUUUGGUCUUAACACUAUGGGCU: 0.529
AGCAAAUGAAAAGGAAUCUAUUUAUGGAAUAAACUCGAAACCUAAAUUUCAGUAUUUUAGUAAUAUGCCAGCUGUUCUUAAUGUAUUUAUUAAAAUGUAUAACAAUGUGA: 0.478

Repeated from above (series 2):
TCATTTTTTTATTTATAACTGTGCTAG: 1.26 z-score
TTAGGTTTCCTACTGCTCTAGTGCTAG: 0.231 z-score
GACGATATCGTGTATCGAGACGTGCTA: 1.4 z-score
GACGATATCGGGACGGGAGACGTGCTA: 0.814 z-score
TTAGGTTCCCTTTTCTTTTAGTGCTAG: 0.76 z-score
GACGGTCTCGGACTGGGGATGTGCTAG: -0.101 z-score
TTAGGTTTCGGTTTCGGATAGTGCTAG: 11.4 z-score
GACGGTTTGCTTTCCCTGACGTGCTAG: 0.789 z-score
ACATTCCATGAGCCCACTGGGTGCTAG: -0.195 z-score
